Assay results gathered from unrelated publications.
Compare with care: the assays were run in different laboratories. ± marks the error that the study gave. Values after ≈ are worked out from the molar mass of the structure shown.

Structure (SMILES) | test | system | conditions | how to read | endpoint | result
CCn1c(=O)c2c(nc(/C=C/c3ccc(O)c(OC)c3)n2C)n(CC)c1=O |  | healthy humans, plasma | oral, 40 mg, added: rifampin 600 mg/day |  | metabolite to parent AUClast ratio | 0.0613
C[C@](N)(Cc1ccc(O)c(O)c1)C(=O)O |  | supercritical carbon dioxide | 5 h, 333 K, 27 MPa, density 806.7 kg/m3 |  | solubility | 354 µg/mL (≈ 1680 µM)
CS/C(S)=N/CCCC[S+](C)[O-] (racemic) | RT-PCR, measured: Cyp2b3 | rat, liver | oral gavage, 200 mg/kg, dosed for four days | reference: vehicle | mRNA fold change | 2.09
CNC(=O)c1cccc2cc(Oc3ccnc4cc(OCC5(N)CC5)c(OC)cc34)ccc12 |  | human | oral, 10 mg, cycle 1 day 15, multiple dose, continuous arm, geometric mean |  | Vss/F | 125 L
C[N+]1(CC(=O)OC2CCCCCCCCC2)CCCCC1.[I-] |  | phosphate buffer with 2% DMSO | 90 min, pH 7.4, theoretical maximum 200 µM |  | aqueous solubility | 181 µM
CC(C)(Sc1ccncc1-c1ccc(C#N)c2ccccc12)C(=O)O |  | non-Asian male subjects, plasma | oral, 10 mg, multiple doses, fed, geometric least squares mean |  | AUC(0-24) | 141 ng·h/mL
Cc1c2c(n(-c3ccc(F)cc3Cl)c1-c1ccc(OS(=O)(=O)CCC(F)(F)F)cc1)CCN(N1CCCCC1)C2=O | LC-MS/MS | cynomolgus monkey 4, plasma | intravenous infusion, 0.02 mg/kg, 90 min, total concentration mid-point of PET |  | plasma concentration | 1 nM
CCC(CC)COC(=O)[C@H](C)N[P@](=O)(OC[C@H]1O[C@@](C#N)(c2ccc3c(N)ncnn23)[C@H](O)[C@@H]1O)Oc1ccccc1 |  | 20% w/w aqueous SBECD | 24 h, pH 1.9, 25 °C, SBECD source 2 |  | equilibrium solubility | 7910 µg/mL
COc1cc(/C=C/C(=O)CC(=O)/C=C/c2ccc(O)c(OC)c2)ccc1O | I-125 label, gamma counting | C57BL/6J mouse, cerebellum | IN 10 µg/mouse vs IP 100 µg/mouse, 30 min | reference: intranasal over intraperitoneal | brain uptake ratio | 6.18
C[C@H](Oc1ccc(-c2nc(-c3ccc4[nH]cnc4c3)no2)cc1C(F)(F)F)C(F)(F)F |  | cynomolgus monkey, aneurysm model, plasma | 0.1 mg/kg once daily, 1 h post-dose, 12 months dosing |  | plasma concentration | 9.4 ± 0.9 nM
C[C@@H](N)c1cc(Cl)ccc1Cn1c(=S)[nH]c(=O)c2[nH]ccc21 |  | healthy Japanese volunteers, plasma | oral, 5 mg once daily, day 1, median |  | tmax | 1.5 h
Cn1cc(-c2ccc3nnc(Sc4ccc5ncccc5c4)n3n2)cn1 |  | guinea pig Hartley male, hepatic S9 | 1 µM, pH 7.4, added: without NADPH |  | CLint | 15.8 ± 6.15 mL/min/kg
Cc1cc(C)c2c(c1)[C@@H](N(Cc1cc(C(F)(F)F)cc(C(F)(F)F)c1)c1nnn(C)n1)CCCN2C[C@H]1CC[C@H](C(=O)O)CC1 |  | human, plasma | oral, 600 mg once daily, steady state, geometric mean |  | Vss/F | 1740 L
CO[C@H]1C[C@@H]2CC[C@@H](C)[C@@](O)(O2)C(=O)C(=O)N2CCCC[C@H]2C(=O)O[C@H]([C@H](C)C[C@@H]2CC[C@@H](O)[C@H](OC)C2)CC(=O)[C@H](C)/C=C(\C)[C@@H](O)[C@@H](OC)C(=O)[C@H](C)C[C@H](C)/C=C/C=C/C=C/1C |  | human, whole blood | nasogastric tube, 5 mg/day |  | trough blood concentration | < 4 ng/mL
CS(=O)(=O)n1cc2c(n1)CN([C@H]1CO[C@H](c3cc(F)ccc3F)[C@@H](N)C1)C2 |  | healthy male human, plasma | oral, 100 mg single, fasted, geometric mean |  | concentration at 168 h | 54.3 nM
C=CC(N)CCC(=O)O (stereo not shown) |  | male Sprague-Dawley rat, plasma | intravenous, 1.0 mg/kg, formulation 0 |  | elimination rate constant | 0.000556 ± 5.56e-05 s⁻¹
O=C(/C=C/c1ccc(O)c(O)c1)O[C@H](Cc1ccc(O)c(O)c1)C(=O)O | UPLC-MS/MS | Wistar rat, microcirculation dysfunction model, plasma | oral, 100 mg/kg Salvia miltiorrhiza stem-leaf extract FS |  | MRT(0-inf) | 5.01 ± 1.59 h
CC(C)NC[C@@H](C(=O)N1CCN(c2ncnc3c2[C@H](C)C[C@H]3O)CC1)c1ccc(Cl)cc1 |  | human, normal hepatic function, plasma | oral, 100 mg single dose, reference group versus Severe | reference: NCI classification | AUC(0-∞) | 353 ng·h/mL
CCN1CCN(Cc2ccc(Nc3ncc(F)c(-c4cc(F)c5nc(C)n(C(C)C)c5c4)n3)nc2)CC1 | population PK model | patients, plasma | oral, 150 mg single dose |  | hepatic clearance | 23 L/h
C[C@@H](O)[C@H]1C(=O)N2C(C(=O)O)=C(S[C@@H]3CN[C@H](C(=O)N(C)C)C3)[C@H](C)[C@H]12 | microdialysis | pig, Danish Landrace, cortical bone | intravenous, 1000 mg over 10 min, 450 min dosing interval, added: 2.0 µg/mL MIC | reference: dosing interval | time above MIC | 10%

Structure (SMILES) | test | system | conditions | how to read | endpoint | result
CCC[C@@]1(CCc2ccccc2)CC(O)=C([C@H](CC)c2cccc(NS(=O)(=O)c3ccc(C(F)(F)F)cn3)c2)C(=O)O1 |  | Sprague Dawley rat, male, plasma | oral, 5 mg/kg, lipid-free formulation |  | oral bioavailability | 36 ± 3%
CC(C)C[C@H](NC(=O)[C@H](CCc1ccccc1)NC(=O)CN1CCOCC1)C(=O)N[C@@H](Cc1ccccc1)C(=O)N[C@@H](CC(C)C)C(=O)[C@@]1(C)CO1 | LC-MS | human, plasma | intravenous push, 20 mg/m^2 |  | Vz | 84.7 L
C=C(C)[C@@H]1CC[C@]2(NCCN3CCS(=O)(=O)CC3)CC[C@]3(C)[C@H](CC[C@@H]4[C@@]5(C)CC=C(C6=CC[C@@](CF)(C(=O)O)CC6)C(C)(C)[C@@H]5CC[C@]43C)[C@@H]12 | LC-MS/MS | HIV-1-infected treatment-naive adults, plasma | oral, 80 mg once daily, day 7, monotherapy |  | trough concentration | 360 ng/mL
CCC(CC)O[C@@H]1C=C(C(=O)O)C[C@H](N)[C@H]1NC(C)=O |  | healthy Indian subjects, fed, plasma | oral, 75 mg oseltamivir phosphate, test capsule formulation |  | elimination rate constant | 2.58e-05 ± 3.61e-06 s⁻¹
CCOC(=O)c1ccc2c(c1)C(=O)CCc1ccccc1C(=O)N2 | nephelometry | aqueous buffer | 30 min, pH 6.5 |  | kinetic solubility | > 50 µg/mL
Cn1c(-c2ccc(C(N)=O)cc2F)nnc1C(C)(C)Oc1c(F)cc(Cl)cc1F |  | young non-Japanese adults, plasma | oral, 50 mg single dose, day 1, high-dose multiple-dose study |  | half-life median | 11.7 h
CCCOc1ccc([C@H]2CNC(=O)N2c2ccc3[nH]cnc3c2)cc1 |  | human, plasma | oral, 50 mg, single dose, fasted |  | AUC(0-t) | 348 ng·h/mL
CNC[C@H](O)[C@@H](O)[C@H](O)[C@H](O)CO.CNC[C@H](O)[C@@H](O)[C@H](O)[C@H](O)CO.O=C([O-])CN(CCN(CC(=O)[O-])CC(=O)O)CCN(CC(=O)O)C(COCc1ccccc1)C(=O)[O-].[Gd+3] (stereo not shown) | MRI at 9.4 T | saline | 37 °C, per Gd |  | T1 relaxivity r1 | 4.9 ± 0.1 mM⁻¹ s⁻¹
COc1ccc(-n2nc(C(N)=O)c3c2C(=O)N(c2ccc(N4CCCCC4=O)cc2)CC3)cc1 |  | human male and female, plasma | oral, 10 mg, geometric least squares mean |  | AUC(0-tlast) | 1680 ng·h/mL
CCCS(=O)(=O)Nc1ccc(F)c(C(=O)c2c[nH]c3ncc(-c4ccc(Cl)cc4)cc23)c1F | rapid equilibrium dialysis | 100% human plasma | 5 µM, 4 h |  | unbound fraction in incubation | 1.38e-05 ± 4.5e-06
C/C=C/C[C@@H](C)C(=O)[C@H]1C(=O)N[C@@H](C(C)C)C(=O)N(C)CC(=O)N(C)[C@@H](CC(C)C)C(=O)N[C@@H](C(C)C)C(=O)N(C)[C@@H](CC(C)C)C(=O)N[C@@H](C)C(=O)N[C@H](C)C(=O)N(C)[C@@H](CC(C)C)C(=O)N(C)[C@@H](CC(C)C)C(=O)N(C)[C@@H](C(C)C)C(=O)N1C |  | pediatric patients, blood | intravenous infusion, dose not given, 85 h, median |  | blood concentration | 2590 ng/mL
Cc1cccc(N(C)c2nccc(-c3cnn4ncccc34)n2)c1 |  | human liver microsomes |  |  | CLint | 75 ± 5 µL/min/mg
CC1(C)C=Cc2cc(CN(CC3CC3)S(=O)(=O)c3ccccn3)ccc2O1 | laser nephelometry | PBS with 1% DMSO | 90 min, pH 7.4 |  | aqueous solubility | < 15 µg/mL
CC#CC(=O)N1CCC[C@H]1c1nc(-c2ccc(C(=O)Nc3ccccn3)cc2)c2c(N)nccn12 |  | Japanese patients, plasma | oral, 100 mg single dose, fasting, geometric mean |  | AUC(0-12 h) | 891 ng·h/mL
Clc1ccccc1C(c1ccccc1)(c1ccccc1)n1ccnc1 | equilibrium dialysis | 500 nM CYP26B1 in buffer | 1 µM, 12 h, pH 7.4, spectral binding conditions |  | unbound fraction | 0.005 ± 0.0006
Cc1nc2ccccc2c(O)c1CC=C(Cl)Cl |  | 0.1 M sodium acetate with 0.01% Triton X-100 | pH 5.5 |  | maximum solubility | 20 µM
Cc1nc2cccc(OCC(C)(C)C(=O)NC(C)C)c2c(N)c1C(=O)O |  | female Sprague-Dawley rat, plasma | oral gavage, 10 mg/kg, day 7 |  | half-life | 1.17 h
CCCCCCCCCCCCCNCC(=O)N(CC(=O)N(CCCCN)CC(=O)N(CCN)CC(=O)N(CC(N)=O)C1CCCC1)C1CCCC1 | preparative RP-HPLC C18 | water to acetonitrile gradient | 0.05% TFA in eluent | higher = more hydrophobic | acetonitrile at elution | 68.1%
CCCC[C@H](NC(C)=O)C(=O)N[C@H]1CCC(=O)NC[C@@H](C(=O)N[C@@H](Cc2c[nH]c3ccccc23)C(N)=O)NC(=O)[C@H](CCCNC(=N)N)NC(=O)[C@@H](Cc2ccccc2)NC(=O)[C@H](Cc2c[nH]cn2)NC1=O |  | beagle dog, male, plasma | subcutaneous, 8.0 mg/kg daily, day 14 |  | AUC(0-last) | 1200 ng·h/mL
C[C@]12CC[C@@H]3c4ccc(OS(=O)(=O)O)cc4CC[C@H]3[C@@H]1CCC2=O |  | BME-UV cell monolayer on Transwell | 100 µM, 4 h, basolateral to apical | reference: support alone over monolayer | permeation rate constant ratio | ≥ 30

Repeated from above:
Structure (SMILES) | test | system | conditions | how to read | endpoint | result
Cc1nc2cccc(OCC(C)(C)C(=O)NC(C)C)c2c(N)c1C(=O)O |  | female Sprague-Dawley rat, plasma | oral gavage, 10 mg/kg, day 7 |  | half-life | 1.17 h
C=CC(N)CCC(=O)O (stereo not shown) |  | male Sprague-Dawley rat, plasma | intravenous, 1.0 mg/kg, formulation 0 |  | elimination rate constant | 0.000556 ± 5.56e-05 s⁻¹
Cc1cccc(N(C)c2nccc(-c3cnn4ncccc34)n2)c1 |  | human liver microsomes |  |  | CLint | 75 ± 5 µL/min/mg
CC(C)NC[C@@H](C(=O)N1CCN(c2ncnc3c2[C@H](C)C[C@H]3O)CC1)c1ccc(Cl)cc1 |  | human, normal hepatic function, plasma | oral, 100 mg single dose, reference group versus Severe | reference: NCI classification | AUC(0-∞) | 353 ng·h/mL
C[N+]1(CC(=O)OC2CCCCCCCCC2)CCCCC1.[I-] |  | phosphate buffer with 2% DMSO | 90 min, pH 7.4, theoretical maximum 200 µM |  | aqueous solubility | 181 µM
